# Published values gathered from unrelated publications.
# Lines come from different studies, so protocols differ.
# Read-out: ABTS scavenging
SMILES,assay,setting,IC50
COc1cc(/C=C/C(=O)CC(=O)/C=C/c2ccc(OC(=O)CCc3c[nH]c4ccccc34)c(OC)c2)ccc1OC(=O)CCc1c[nH]c2ccccc12,,,290 µM
O=C(O)CCCC(=O)O,,,74 µg/mL
COc1cc(/C=C/C(=O)NC(C)C(N)=O)ccc1OCc1ccccc1 (stereo not drawn),,,63.4 µM
c1coc(-c2nc3ccccc3[nH]2)c1,absorbance,,1.42 µM
O=C(/C=C/c1ccc(O)cc1)OC[C@H]1O[C@@H](Oc2cc(O)c3c(=O)cc(-c4ccc(O)cc4)oc3c2)[C@H](O)[C@@H](OC(=O)/C=C/c2ccc(O)cc2)[C@@H]1O,absorbance,15 min,36.6 µM
O=c1c(O)c(-c2cc(O)ccc2O)oc2cc(O)cc(O)c12,,,65 µg/mL
O=C(/C=C/c1ccc(O)cc1)O[C@@H]1[C@@H](O)[C@H](Oc2cc(O)c3c(=O)cc(-c4ccc(O)cc4)oc3c2)O[C@H](CO)[C@H]1O,absorbance,15 min,36.7 µM
O=C(O)/C=C/c1ccc(O)cc1,,,62 µg/mL
S=C(NCc1ccccn1)NCc1ccccn1,,,400 µg/mL

# Repeated from above:
SMILES,assay,setting,IC50
O=C(O)CCCC(=O)O,,,74 µg/mL
